Experimental data of several laboratories.
A part holds a random share of what one study measured. Positions count from the first letter of the parent shown.

Set 1 — method: DHFR PCA, deep sequencing; sample: yeast; added: (+)-ABA 200 µM; relative to: wild-type fitted maximum; reading: higher = stronger binding
Target: ABI1, truncated, D143A, DHFR fusion (Arabidopsis thaliana)
Setting: methotrexate growth selection, single substitutions
Starting sequence: PYL1, truncated, DHFR fusion (Arabidopsis thaliana); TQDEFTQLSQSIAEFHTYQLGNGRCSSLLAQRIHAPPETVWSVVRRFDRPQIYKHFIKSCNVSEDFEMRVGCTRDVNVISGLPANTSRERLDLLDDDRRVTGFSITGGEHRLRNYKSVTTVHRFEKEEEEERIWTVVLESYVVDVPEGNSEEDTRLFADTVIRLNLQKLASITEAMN; partner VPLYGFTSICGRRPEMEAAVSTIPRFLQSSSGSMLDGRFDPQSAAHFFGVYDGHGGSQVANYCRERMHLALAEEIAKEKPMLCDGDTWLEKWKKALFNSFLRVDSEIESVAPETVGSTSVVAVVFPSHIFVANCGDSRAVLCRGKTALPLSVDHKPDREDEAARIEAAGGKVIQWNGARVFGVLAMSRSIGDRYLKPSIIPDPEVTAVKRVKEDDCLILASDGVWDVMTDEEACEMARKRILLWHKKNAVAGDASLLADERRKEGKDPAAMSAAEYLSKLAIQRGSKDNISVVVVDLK
`Q51P` — result for “relative binding score”: -3.5%.
`Q2E`: “relative binding score” 101%.
Under “relative binding score”, `I52K` is recorded as 99.8%.
Under “relative binding score”, `I33Q` is recorded as 1.99%.
`T1L` — result for “relative binding score”: 97.9%.
For `D159C`, “relative binding score” read 58.7%.
For `A170H`, “relative binding score” read 34.6%.
For `T73R`, “relative binding score” read 94.8%.
For `P36Y`, “relative binding score” read 81.4%.
Under “relative binding score”, `C72V` is recorded as 102%.
Under “relative binding score”, `L166I` is recorded as 38.3%.
For `V136N`, “relative binding score” read 31.2%.
`H55L` — result for “relative binding score”: 101%.
`L94V`: “relative binding score” 75.5%.

Set 2 — target: CCNA2, cyclin fold, Cln2 fusion (human); method: yeast growth competition, sequencing; sample: yeast; setting: weak parent motif; relative to: not given; reading: higher = stronger binding
Starting sequence: LLGL2 docking peptide (human); KSLKKSLRQSFRR
`KSLKKSLRQAFRR [S10A]`: “normalised enrichment score” 1.03.
For `KSLKKSLRQSFAR [R12A]`, “normalised enrichment score” read 1.53.
`ASLKKSLRQSFRR [K1A]`: “normalised enrichment score” 0.765.
`KSLKKSARQSFRR [L7A]`: “normalised enrichment score” 0.863.
Under “normalised enrichment score”, `KSAKKSLRQSFRR [L3A]` is recorded as 0.746.
`KSLKKSLRQSARR [F11A]`: “normalised enrichment score” 0.046.
Under “normalised enrichment score”, `KSLAKSLRQSFRR [K4A]` is recorded as 1.73.

Set 3 — target: CREB3L1, bZIP domain (human); method: DHFR protein complementation; sample: yeast; relative to: wild-type JUN-FOS pair; reading: higher = stronger binding
Setting: single substitutions, most at no-binding floor
Starting sequence: JUN, bZIP domain (human); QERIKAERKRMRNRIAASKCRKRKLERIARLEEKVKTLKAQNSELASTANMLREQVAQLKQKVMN; partner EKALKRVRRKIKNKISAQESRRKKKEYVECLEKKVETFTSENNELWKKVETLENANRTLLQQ
For `L45V`, the binding fitness was -1.51 natural log.
For `K39I`, the binding fitness was -1.48 natural log.
With `A29I` the binding fitness was -1.5 natural log.
The binding fitness of `Q41S` is reported as -1.48 natural log.
For `E54Y`, the binding fitness was -1.45 natural log.
With `T48M` the binding fitness was -1.33 natural log.
For `L31I`, the binding fitness was -1.55 natural log.
`R53H` gave a binding fitness of -1.54 natural log.
`Q41V` gave a binding fitness of -1.47 natural log.
The binding fitness of `M51K` is reported as -1.32 natural log.
`K36H` gave a binding fitness of -1.54 natural log.
`K36F` has a binding fitness of -1.52 natural log.
The binding fitness of `R53C` is reported as -1.56 natural log.
For `Q55Y`, the binding fitness was -1.32 natural log.
For `L52K`, the binding fitness was -1.38 natural log.
`I28M` gave a binding fitness of -1.55 natural log.
For `K36V`, the binding fitness was -1.42 natural log.
For `K39Q`, the binding fitness was -1.45 natural log.
For `N42L`, the binding fitness was -1.5 natural log.
`A46T` gave a binding fitness of -1.43 natural log.
With `Q41M` the binding fitness was -1.29 natural log.
`K39C` has a binding fitness of -1.41 natural log.
`Q41R` gave a binding fitness of -1.44 natural log.

Set 4 — target: OGT, full length, His-tagged (human); method: phage display, sequencing; sample: in vitro; tested at: 1 µg OGT; relative to: input library; reading: higher = stronger binding; starting sequence: peptide; GDFPVMFMPKYSIIY
Setting: single substitutions, 15-mer displayed peptide, unchanged parent 5.27
With `F7V` the fold enrichment was 1.53 fold.
With `P9S` the fold enrichment was 3.81 fold.
`I13E` gave a fold enrichment of 0.812 fold.
With `D2M` the fold enrichment was 4.76 fold.
`P9E` gave a fold enrichment of 2.64 fold.
For `I14K`, the fold enrichment was 3.08 fold.
`D2V` gave a fold enrichment of 4.52 fold.
For `Y11G`, the fold enrichment was 0.587 fold.
The fold enrichment of `K10I` is reported as 1.43 fold.
`V5P` gave a fold enrichment of 4.18 fold.
With `K10P` the fold enrichment was 0.98 fold.
For `Y15L`, the fold enrichment was 5.89 fold.
For `M6Y`, the fold enrichment was 6.13 fold.
With `I14P` the fold enrichment was 1.02 fold.
The fold enrichment of `D2G` is reported as 3.97 fold.
For `S12N`, the fold enrichment was 1.25 fold.
`I13H` gave a fold enrichment of 1.11 fold.
`I13D` has a fold enrichment of 0.631 fold.

Set 5 — method: RNA Bind-n-Seq; molecule type: RNA; sample: in vitro; tested at: 200 nM; setting: whole 134-nt RNA, ends assumed; added: 150 mM KCl; relative to: input library; reading: higher = stronger binding
Target: Fragile X messenger ribonucleoprotein 1, C-terminal low-complexity region (Fmr1, Mus musculus, UniProt P35922)
For `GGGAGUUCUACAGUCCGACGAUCUGGAUUUUCAAGACACGAAUGCUCGGAGUCUGGCAGAAAGGAAGAGAGAAGAGGAGAAGCAGAAGCACUUGGAUAAAAUUUAUCAAGAAAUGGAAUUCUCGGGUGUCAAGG`, the log2 enrichment was -0.457.
`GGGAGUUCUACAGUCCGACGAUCCACAGACAACACACACCCACACAGACACAGAGGGAAGGGGUUGGGAUGGGGACAGGGUGCACAGCAGGGCGGGGUAGGACCCCAGCCCCUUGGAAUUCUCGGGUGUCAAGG` gave a log2 enrichment of 1.13.
`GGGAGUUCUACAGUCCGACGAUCGUCCUGUGCUACACAUCGUAUGUACCGAAUCGGGUUUUUUUGGGAAAGGGUUUUUGGGAAAGUAUUAUGUUACGCCGUUCGGAUCUGCACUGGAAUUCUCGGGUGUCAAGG` gave a log2 enrichment of -0.204.
The log2 enrichment of `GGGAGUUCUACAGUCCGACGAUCUGGGUGAAGAGGGACAGUUACCUUCCUGUGGGCAGUCAUAAUCUCAAGGCGGCCGCCAAGGCCAAGCUAGGCUAUGAUCCCGUGGAGCUAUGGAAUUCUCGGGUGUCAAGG` is reported as -1.28.
For `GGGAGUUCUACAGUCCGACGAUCCCUCAAGUCCUGUGCUACACAUCGUAUGUACCGAAUCGGGUGGGGUGGGUGGGAAAGUAUUAUGUUACGCCGUUCGGAUCUGCACUUCCAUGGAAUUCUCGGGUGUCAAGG`, the log2 enrichment was 1.38.
For `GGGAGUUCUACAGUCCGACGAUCUCAAGUCCUGUGCUACACAUCGUAUGUACCGAAUCGGGAAAAAGGGAGGGUGGGAAAGUAUUAUGUUACGCCGUUCGGAUCUGCACUUCCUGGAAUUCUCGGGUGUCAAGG`, the log2 enrichment was 1.19.
With `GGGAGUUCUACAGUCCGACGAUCCUCAAGUCCUGUGCUACACAUCGUAUGUACCGAAUCGGUGGAAAAAGGAAAGGAAAGUAUUAUGUUACGCCGUUCGGAUCUGCACUUCCAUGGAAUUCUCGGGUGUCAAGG` the log2 enrichment was -0.155.
`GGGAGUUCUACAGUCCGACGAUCGCAGGAAGUAAAAACAAAUGGAAAUGCUUCGGAUAGUGGCAGGGGUGGGGGUUGCUAAGGAAAGGGUGGGAUGGGAGUGGUUAAAGAGUUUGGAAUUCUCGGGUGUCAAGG` has a log2 enrichment of 0.255.
For `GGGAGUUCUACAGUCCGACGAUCGUCCUGUGCUACACAUCGUAUGUACCGAAUCGGGGAAAGGGGUUUUUGGGGUUUGGGGAAAGUAUUAUGUUACGCCGUUCGGAUCUGCACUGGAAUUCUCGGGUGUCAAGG`, the log2 enrichment was 0.587.
For `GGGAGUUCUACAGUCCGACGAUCCAAGUCCUGUGCUACACAUCGUAUGUACCGAAUCGGAAAAAAAGGUGGAAAAAGGAAAGUAUUAUGUUACGCCGUUCGGAUCUGCACUUCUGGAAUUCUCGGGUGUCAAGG`, the log2 enrichment was -0.699.
`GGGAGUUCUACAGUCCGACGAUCCUCAAGUCCUGUGCUACACAUCGUAUGUACCGAAUCGGCCGGGCCGGGGCCGGAAAGUAUUAUGUUACGCCGUUCGGAUCUGCACUUCCAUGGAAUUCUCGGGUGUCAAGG` has a log2 enrichment of 0.0698.
`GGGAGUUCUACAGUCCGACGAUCAGUCCUGUGCUACACAUCGUAUGUACCGAAUCAAAUUUAAAUUUUUUUAAACCCAAAAAAGUAUUAUGUUACGCCGUUCGGAUCUGCACUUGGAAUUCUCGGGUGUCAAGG` gave a log2 enrichment of 0.0228.
With `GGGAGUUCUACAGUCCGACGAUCUCAAGUCCUGUGCUACACAUCGUAUGUACCGAAUCGGAGGAAAAAGGUUUUUGGAAAGUAUUAUGUUACGCCGUUCGGAUCUGCACUUCCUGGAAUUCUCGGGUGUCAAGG` the log2 enrichment was -0.675.
The log2 enrichment of `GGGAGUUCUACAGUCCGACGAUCGCAGGAAGUAAAAACAAAUGGAAAUGCUUCGGAUAGUGGCAGGGGUGGGGGUUGCUAAGUAAAGGGUGGGAUGGGAGUGGGUAAAGAGUUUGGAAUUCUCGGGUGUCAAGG` is reported as 0.119.

Set 6 — target: CRIPT, C-terminal peptide; method: DHFR complementation, deep sequencing; sample: yeast; relative to: wild type; reading: higher = weaker binding
Setting: single substitutions, model-inferred values
Starting sequence: ERBIN, PDZ domain 1 (human); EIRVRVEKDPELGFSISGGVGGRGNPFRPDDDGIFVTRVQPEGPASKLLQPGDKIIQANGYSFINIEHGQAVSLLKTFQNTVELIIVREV; partner TKNYKQTSV
Under “binding free energy change”, `Q50W` is recorded as -0.0186 kcal/mol.
Under “binding free energy change”, `E67D` is recorded as 0.109 kcal/mol.
`L49I` — result for “binding free energy change”: -0.217 kcal/mol.
Under “binding free energy change”, `L48C` is recorded as 0.163 kcal/mol.
`G60F` — result for “binding free energy change”: 0.234 kcal/mol.
`S46T`: “binding free energy change” 0.11 kcal/mol.
`P41A` — result for “binding free energy change”: 0.172 kcal/mol.
For `F14W`, “binding free energy change” read 1.22 kcal/mol.
`K76W`: “binding free energy change” 0.42 kcal/mol.
For `P29D`, “binding free energy change” read -0.0504 kcal/mol.
For `I66N`, “binding free energy change” read 0.707 kcal/mol.

Further values, each from its own experiment
The fold induction of `PhoQ, residues 284 288 289 292 302 303 SMMNNA` is reported as 4.68 (PhoP, residues 12 14 15 18 19 AGCRL (Escherichia coli, UniProt P23836); Sort-seq, item: YFP reporter; E. coli; PhoQ-PhoP variant library, added: 10 µM Mg2+; relative to: high Mg2+ state, higher = stronger signaling).

A few entries again (set 4):
With `I14P` the fold enrichment was 1.02 fold.
For `Y15L`, the fold enrichment was 5.89 fold.
With `P9S` the fold enrichment was 3.81 fold.
The fold enrichment of `K10I` is reported as 1.43 fold.
With `K10P` the fold enrichment was 0.98 fold.
For `S12N`, the fold enrichment was 1.25 fold.
The fold enrichment of `D2G` is reported as 3.97 fold.
`I13E` gave a fold enrichment of 0.812 fold.
`D2V` gave a fold enrichment of 4.52 fold.
With `D2M` the fold enrichment was 4.76 fold.
`V5P` gave a fold enrichment of 4.18 fold.
For `M6Y`, the fold enrichment was 6.13 fold.
`P9E` gave a fold enrichment of 2.64 fold.
With `F7V` the fold enrichment was 1.53 fold.
